Experimental data pooled from the literature.
Numbered parts are unrelated; each lists some results of a single study. Positions count from the first letter of the parent shown.

Set 1 — target: CCND1, cyclin fold, Cln2 fusion (human); technique: yeast growth competition, sequencing; sample: yeast; setting: weak parent motif; reference: not given; direction: higher = stronger binding
Parent: DOT1L docking peptide (human); SEAKRRIVFTITT
For `SEAKRRAVFTITT [I7A]`, “normalised enrichment score” read -0.0324.
Under “normalised enrichment score”, `SEAKRRIVFTITA [T13A]` is recorded as 0.526.
For `SEAKRRIAFTITT [V8A]`, “normalised enrichment score” read 0.324.
`SEAKRRIVFTIAT [T12A]`: “normalised enrichment score” 0.237.
`SEAKRAIVFTITT [R6A]`: “normalised enrichment score” 0.404.
Under “normalised enrichment score”, `SAAKRRIVFTITT [E2A]` is recorded as 0.49.

Set 2 — technique: aptamer microarray, sandwich; form: DNA with 2'F-ANA; sample: in vitro; tested at: 200 nM; together with: Cy3 exosite-II aptamer, 400 nM; direction: higher = stronger binding; strand: GGTTGGTGTGGTTGG
Target: Prothrombin, mature alpha-thrombin (F2, Homo sapiens, UniProt P00734)
Setting: whole 15-mer aptamer, many near background
Under “mean fluorescence intensity”, `2'F-ANA at 2 4 5 6 9 11 12 15` is recorded as 95.2 a.u.
`2'F-ANA at 1 5 6 7 13`: “mean fluorescence intensity” 46.3 a.u.
For `2'F-ANA at 3 5 6 7 8 9 10 11 12 13`, “mean fluorescence intensity” read 60.7 a.u.
`2'F-ANA at 1 8 10 11 12 14 15`: “mean fluorescence intensity” 54.3 a.u.
`2'F-ANA at 4 6 11`: “mean fluorescence intensity” 220 a.u.
`2'F-ANA at 1 2 3 6 11 12`: “mean fluorescence intensity” 303 a.u.
For `2'F-ANA at 3 7 11 13 14`, “mean fluorescence intensity” read 650 a.u.
`2'F-ANA at 5 6 7 8 9 10 13 15`: “mean fluorescence intensity” 46.4 a.u.
Under “mean fluorescence intensity”, `2'F-ANA at 3 4 5 9 11 12 13 14 15` is recorded as 55.3 a.u.

Set 3 — target: CRIPT, C-terminal peptide; technique: DHFR complementation, deep sequencing; sample: yeast; reference: wild type; direction: higher = weaker binding
Setting: single substitutions, model-inferred values
Parent: ERBIN, PDZ domain 1 (human); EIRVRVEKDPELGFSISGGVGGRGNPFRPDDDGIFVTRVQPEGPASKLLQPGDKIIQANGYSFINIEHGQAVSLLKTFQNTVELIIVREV; partner TKNYKQTSV
Under “binding free energy change”, `D53Y` is recorded as 0.628 kcal/mol.
`V87T`: “binding free energy change” 0.044 kcal/mol.
`S62Q`: “binding free energy change” 0.0553 kcal/mol.
Under “binding free energy change”, `V82R` is recorded as 1.62 kcal/mol.
Under “binding free energy change”, `E89K` is recorded as 0.0881 kcal/mol.

Further values, each from its own experiment
`PhoQ, residues 284 288 289 292 302 303 GLASVI` gave a fold induction of 4.65 (PhoP, residues 12 14 15 18 19 LHTVM (Escherichia coli, UniProt P23836); Sort-seq, refers to: YFP reporter; E. coli; PhoQ-PhoP variant library, together with: 10 µM Mg2+; reference: high Mg2+ state, higher = stronger signaling).
